Published values collected from several papers.
Values joined by “and” are separate records of one study, mostly repeats; a detail may differ. Numbers after ± are the reported error.

The colony survival of `O=C(c1cc(Cc2n[nH]c(=O)c3ccccc23)ccc1F)N1CCN(C(=O)C2CC2)CC1` is reported as 48.7% (MDA-MB-436 BRCA1-mutant; colony formation; 20 nM; reference: vehicle (DMSO)).
The inhibition of `OB1OCc2cc(F)ccc21` is reported as -0.648% (THP-1; pyroptotic LDH release; 2 µM, 40 min, together with: LPS then nigericin).
`Cc1cc(-c2ccccc2)n(-c2nc(-c3ccc(Cl)cc3)c3c(NC(=O)c4ccccc4)nnc-3[nH]2)n1` has a cell growth of 93.2% (SF-268; SRB; 10 µM, NCI60 single-dose screen; reference: untreated).
`CC(=O)OCC1=CO[C@@H](OC(=O)CC(C)C)[C@H]2C1=C[C@H](OC(=O)CC(C)(C)OC(C)=O)[C@]21CO1` has an inhibition of 72.6% (THP-1; pyroptotic LDH release; 2 µM, 40 min, together with: LPS then nigericin).
For `CCc1cnc(N2CCC(c3nc(COc4ccc(-n5cnnn5)cc4)cs3)CC2)nc1`, “normalized enrichment score” read 1.44 (HEK-293T; RNA-seq GSEA, refers to: HALLMARK_UV_RESPONSE_DN; concentration not given; direction not given).
`Cc1cccc(-c2[nH]c(CNc3ccccc3F)nc2-c2ccc3ncnn3c2)n1` has a viability of 9% (bone marrow CD138+ myeloma cells; XTT; 1.6 µM, mean of three patients).
`Cc1ccc(CNC(=O)Cn2cc(CSc3nc4ccccc4[nH]3)nn2)cc1` gave a viability of 18.6% (MDA-MB-231; MTT; 15.6 ppm).
Under “log2 fold change”, `Cc1cc(Nc2ncc(Cl)c(Nc3ccccc3S(=O)(=O)C(C)C)n2)c(OC(C)C)cc1C1CCNCC1` is recorded as -3.06 (CLB-BAR; phosphoproteomics LC-MS/MS, refers to: C10orf137 phosphorylation; 200 nM, 60 min; reference: untreated).
`O=C(NO)c1cnc(N2CCN(S(=O)(=O)c3ccc4ccccc4c3)CC2)nc1` has an EC50 of 0.373 µM (HEK293T ATF4-FLuc reporter; ATF4 reporter gene, activator, luciferase reporter).
For `COc1cc(O)c(C(C)=O)c(OC)c1`, the inhibition was -2.96% (THP-1; pyroptotic LDH release; 2 µM, 40 min, together with: LPS then nigericin).
With `CCn1cc(-c2cc(Cn3ccnc3)cc3c2CCN([C@H](c2cc(OC)ccn2)C2CC2)C3=O)c(C(F)(F)F)n1` the EC50 was 0.65 µM (OCI-Ly10; cell growth, inhibitor; 120 h).
For `COc1c(O)c(C)cc2c1C(=O)c1c(ccc(O)c1O)C2=O`, the viability was 86.2 ± 4.65% (HK-2 co-cultured with HepaRG; MTT; 16.67 µM, 48 h; reference: untreated control).
For `C[C@H](CS)C(=O)N1CCC[C@H]1C(=O)O`, the apoptotic cells was 38 % decrease (HUVEC; annexin V/PI flow cytometry; 10, 100, 1 µM, together with: angiotensin II; reference: angiotensin II alone).
`CCC[C@@H]1O[C@@H]2C[C@H]3[C@@H]4C[C@H](F)C5=CC(=O)CC[C@]5(C)[C@@]4(F)[C@@H](O)C[C@]3(C)[C@]2(SC)O1` gave an EC50 of 7.81 µM (HEK293T ATF4-FLuc reporter; ATF4 reporter gene, activator, luciferase reporter).
For `Cc1ccc(C(=O)c2cc(O)c(O)c([N+](=O)[O-])c2)cc1`, the inhibition was 7.43% (THP-1; pyroptotic LDH release; 2 µM, 40 min, together with: LPS then nigericin).
With `C=CCn1c(=O)c2cnc(Nc3ccc(N4CCN(C)CC4)cc3)nc2n1-c1ccc2c(n1)[C@@](O)(CC)CC2` the pHH3-negative cells was 83% (NCI-H1048; flow cytometry; concentration not given).
For `S=C(NCc1ccc2c(c1)OCO2)N1CCN(c2ncnc3c2oc2ccccc23)CC1`, the EC50 was 1.62 µM (HEK293T ATF4-FLuc reporter; ATF4 reporter gene, activator, luciferase reporter).
`CCc1c(-c2ccccc2)c(-c2ccccc2)nn1-c1ccccc1-c1cccc(OCC(=O)O)c1` gave a mRNA level of 0.927 and 0.812 and 0.933 (mouse osteoclasts; RT-qPCR, refers to: Nfatc1; 1 µM, unit not given, together with: M-CSF plus RANKL; reference: bone marrow macrophages).
For `COc1cc(O)c2c(=O)c(O)c(-c3ccc(O)c(O)c3)oc2c1`, “transepithelial electrical resistance” read 74.1 ± 1.2% (Caco-2/THP-1 co-culture; TEER; concentration not given, together with: LPS 50 ng/mL; reference: control).
The mRNA level of `CC(C)(C)NC(=O)c1cncn1C1CCN(c2ccc(-c3nnc(C(F)(F)F)o3)cn2)CC1` is reported as 1.52 (HDMEC; qPCR, refers to: TSC22D1 isoform 3; concentration not given, unit not given; reference: DMSO).
With `C[C@H](NC(=O)C(=O)Nc1ccccc1C(C)(C)C)C(=O)N[C@@H](CC(=O)O)C(=O)COc1c(F)c(F)cc(F)c1F` the LDH release was 16.5% and 16.6% and 17.9% (THP-1 cells expressing FKBP-caspase-11; pyroptosis, inhibitor; concentration not given, together with: B/B dimerizer).
The inhibition of `CC(=O)C(C)O` (stereo not shown) is reported as -16.3% (THP-1; pyroptotic LDH release; 2 µM, 40 min, together with: LPS then nigericin).
`COc1cc(CCC(=O)O)ccc1O` — result for “transepithelial electrical resistance”: 88.6 ± 6.5% (Caco-2/THP-1 co-culture; TEER; concentration not given, together with: LPS 50 ng/mL; reference: control).
`Cn1c(Nc2nc3ccc(C(F)(F)F)cc3s2)nc2cc(C(=O)NCCOCCO)ccc21` has a fold change of 2.28 (SH-SY5Y; RNA-seq, refers to: SGK1 mRNA; 5 µM, 5 h; reference: untreated cells).
The kynurenine level of `CCCC(=O)[O-].[Na+]` is reported as 115 ± 12.6 % change (Caco-2/THP-1 co-culture; concentration not given, together with: LPS 100 ng/mL).
`COc1cnc2cccc(N3CCc4c(cc(Cn5ccnc5C)cc4-c4cn(C)nc4C(F)(F)F)C3=O)c2c1` gave an EC50 of over 30 µM (NCI-H747; cell growth, inhibitor; 120 h).
For `CC[C@@]1([C@@H]2O[C@@H]([C@H]3O[C@@](O)(CO)[C@H](C)C[C@@H]3C)C[C@@H]2C)CC[C@H]([C@]2(C)CC[C@]3(C[C@H](O)[C@@H](C)[C@@H]([C@@H](C)[C@@H](OC)[C@H](C)C(=O)O)O3)O2)O1`, the EC50 was 0.065 µM (human iPSC-derived cardiac fibroblasts, reporter lines; antifibrotic reporter effect; doses, lower, re-examined at).
`CCOP(=O)(Cc1ccc(-c2nc3ccccc3s2)cc1)OCC` gave an EC50 of 4.33 µM (HEK293T ATF4-FLuc reporter; ATF4 reporter gene, activator, luciferase reporter).
With `CSc1nc(-c2ccc(Cl)cc2)c2c(NC(=O)c3ccccc3)nnc-2[nH]1` the cell growth was 101% (RXF 393; SRB; 10 µM, NCI60 single-dose screen; reference: untreated).
`CC(C)(c1ccc(O)cc1)c1ccc(O)cc1` — result for “S phase cells”: 9.77 ± 2.12% (HepG2 spheroids; Hoechst flow cytometry; 0.01 µM, 96 h).
With `O=C(OCc1ccccc1)c1ccccc1` the inhibition was 33.4% (THP-1; pyroptotic LDH release; 2 µM, 40 min, together with: LPS then nigericin).
Under “transepithelial electrical resistance”, `O=C(O)CCc1cccc(O)c1` is recorded as 73.5 ± 6.2% (Caco-2/THP-1 co-culture; TEER; concentration not given, together with: LPS 250 ng/mL; reference: control).
`CCn1cc(-c2cc(Cn3ccoc3=N)cc3c2CCN([C@@H](C)c2cc(OC)ccn2)C3=O)c(C(F)(F)F)n1` gave an EC50 of over 30 µM (SNU-423; cell growth, inhibitor; 120 h).
`O=C(O)CCc1ccc(O)c(O)c1` gave a kynurenine level of 113 ± 5.4 % change (Caco-2/THP-1 co-culture; concentration not given, together with: LPS 1000 ng/mL).
`COc1cc(OC)c(C=C2C(O)=Nc3ccccc32)c(OC)c1` has an inhibition of -0.899% (THP-1; pyroptotic LDH release; 2 µM, 40 min, together with: LPS then nigericin).
The EC50 of `C[C@@H](Oc1cc(-n2cnc3ccc(CN4CCN(C)CC4)cc32)sc1C(N)=O)c1ccccc1C(F)(F)F` is reported as 7.42 µM (HEK293T ATF4-FLuc reporter; ATF4 reporter gene, activator, luciferase reporter).
`C[C@@]12C(=O)OC(=O)[C@]1(C)[C@H]1CC[C@@H]2O1`: “MyBP-C level change” 8 SD (human iPSC cardiomyocytes; plate-normalised; concentration not given, hit retest; reference: vehicle controls, SDs below control).
The fold change of `C=CC1=C(C)c2cc3[n-]c(cc4nc(cc5[n-]c(cc1n2)c(C)c5C=C)C(C)=C4CCC(=O)O)c(CCC(=O)O)c3C.[Zn+2]` is reported as 2.26 (SH-SY5Y; RNA-seq, refers to: GREM1 mRNA; 5 µM, 5 h; reference: untreated cells).
`COc1cc2ncnc(Nc3ccc(Oc4ccccc4)cc3C)c2cc1OC.O=C(O)C(F)(F)F` — result for “Bliss synergy score”: 223% (Calu-6 (KRAS Q61K); resazurin; concentration not given, 72 h, together with: trametinib; direction not given).
With `O=C(/C=C/C=C/C=C/C1CCCCC1)NC1=C[C@@](O)(/C=C/C=C/C=C/C(=O)NC2=C(O)CCC2=O)[C@@H]2O[C@@H]2C1=O` the GI50 was 19.7 µM (mel285; cell growth, inhibitor, CellTiter-Glo luminescence; 78 h; reference: day 0 cell count).
`COc1ccc(-n2nc(C(C)=O)s/c2=N\N=C(/C)c2ccc(NC(=O)c3ccc(C)cc3)cc2)cc1` gave a viability of 3.06% (MCF7; 5 µM).
With `CC(C)NCC(O)c1ccc(O)c(O)c1` (stereo not shown) the sarcomere length was 1.8 µm (mouse ventricular cardiomyocytes; dose not given, 0.371 s).
The growth percent of `CCCN1CCN(c2ccc3nc(-c4ccc5nc(-c6cc(OC)ccc6OC)[nH]c5c4)[nH]c3c2)CC1` is reported as 106% (OVCAR-8; SRB; 10 µM, 48 h).
Under “G2/M phase cells”, `O=C(C[C@@H](C(F)F)n1ccc(F)n1)N1CCC(O)(Cn2cnc3c(cnn3-c3ccc(F)cc3)c2=O)CC1` is recorded as 10.8% (CHP-212 parental; PI flow cytometry; 0.3 µM, 24 h).
For `O=S(=O)(c1ccccc1)N(CC(F)(F)F)c1ccc(C(O)(C(F)(F)F)C(F)(F)F)cc1`, the EC50 was 4.82 µM (HEK293T ATF4-FLuc reporter; ATF4 reporter gene, activator, luciferase reporter).
The viability of `COc1cc(O)c2c(c1)C(=O)c1cc(C)cc(O)c1C2=O` is reported as 91.2 ± 13.8% (HK-2 co-cultured with HepaRG; MTT; 66.67 µM, 48 h; reference: untreated control).
Under “phospho-TBK1 to TBK1 ratio”, `Cc1nn(-c2nc3c(F)cc(F)cc3s2)c(O)c1C(c1ccc(C(F)(F)F)cc1)c1c(C)nn(-c2nc3c(F)cc(F)cc3s2)c1O` is recorded as 1.04 and 0.821 and 0.936 (THP1-Dual; western blot; 10 µM, dose series, together with: HT-DNA; reference: DMSO).
`O=C(O)Cc1cccc(O)c1` has an inhibition of 40.1% (THP-1; pyroptotic LDH release; 2 µM, 40 min, together with: LPS then nigericin).
For `O=C(O)Cc1ccc(O)cc1`, the IL-1β level was 6.4 ± 1 fold change (coculture, Caco-2, THP-1; ELISA; 50 ng/mL, 8 h, together with: LPS, IFNγ, ATP; reference: untreated control).
`Cc1cnc2ccc3c(c2n1)N1CCC(O)N=C1N3C` (stereo not shown) — result for “relative colony forming efficiency”: 91 ± 4% (BALB/c 3T3; 1 µM; reference: solvent control).
`Cn1cc(-c2ccc(-c3cncc(Cl)c3N3CCC4(CCNC4=O)CC3)cc2)cn1`: “fold change in expression” 2.74 (COLO 205; microarray, refers to: NRP1; concentration not given, 6 h, gene set Neuropilin-1; reference: untreated cells).
For `COc1ccc(NC(=O)c2cccc(-c3nc(NC(P(=O)(O)O)P(=O)(O)O)c4ccsc4n3)c2)cc1F`, “lowest effective concentration” read at most 100 nM (MIA PaCa-2; Rap1A prenylation, inhibitor, Western blot).
For `COc1cccc2c1C(=O)c1c(O)c3c(c(O)c1C2=O)C[C@@](O)(C(=O)CO)C[C@@H]3O[C@H]1C[C@H](N)[C@H](O)[C@H](C)O1`, “representative mode point of departure” read 0.0282 µM (HepG2; protein level, refers to: metallothionein; 24 h).
For `O=c1[nH]nc(OCCCc2ccc(Cl)cc2)c(NCc2cccnc2)c1Br`, “normalized enrichment score” read -1.49 (HEK-293T; RNA-seq GSEA, refers to: HALLMARK_MYC_TARGETS_V1; concentration not given; direction not given).
`COc1cc(/C=C/C(=O)N2CCC=CC2=O)cc(OC)c1OC` has a mRNA expression of 47.6 ± 6.7% (MDA-MB-468; qRT-PCR, refers to: CIAP; 30 µM, 6 h; reference: time zero).

Repeated from above:
`CC(C)(c1ccc(O)cc1)c1ccc(O)cc1` — result for “S phase cells”: 9.77 ± 2.12% (HepG2 spheroids; Hoechst flow cytometry; 0.01 µM, 96 h).
With `O=C(OCc1ccccc1)c1ccccc1` the inhibition was 33.4% (THP-1; pyroptotic LDH release; 2 µM, 40 min, together with: LPS then nigericin).
Under “transepithelial electrical resistance”, `O=C(O)CCc1cccc(O)c1` is recorded as 73.5 ± 6.2% (Caco-2/THP-1 co-culture; TEER; concentration not given, together with: LPS 250 ng/mL; reference: control).
